Experimental data from different studies.
A part holds a random share of what one study measured. Changes are numbered by the printed parent chain.

Block 1
Target: ABI1, truncated, D143A, DHFR fusion (Arabidopsis thaliana)
Method: DHFR PCA, deep sequencing
Medium: yeast
Setting: methotrexate growth selection, single substitutions
Together with: (+)-ABA 200 µM
Baseline: wild-type fitted maximum
Reading: higher = stronger binding
Starting sequence: PYL1, truncated, DHFR fusion (Arabidopsis thaliana); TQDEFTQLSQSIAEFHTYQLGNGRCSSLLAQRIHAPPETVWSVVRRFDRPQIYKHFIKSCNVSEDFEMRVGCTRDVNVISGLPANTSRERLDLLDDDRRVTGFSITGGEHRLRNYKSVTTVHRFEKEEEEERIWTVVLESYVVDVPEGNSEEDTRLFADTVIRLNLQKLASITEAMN
Substitution	relative binding score [%]
E38I	62.2
E38H	89
E38Q	84.3
Y53K	2.28
L138Y	68.9
T1E	93.9
L29M	87.1
W41S	-19.2
T1C	96.1
N177Q	93.6
L8K	74.6
M176T	98.8
G148D	86.4
V143C	98.9
R98P	1.39

Block 2
Target: RNA binding protein fox-1 homolog 2, RRM domain, GST-SBP tag (RBFOX2, Homo sapiens, UniProt O43251-10, residues 100-194)
Method: RNA Bind-n-Seq
Form: RNA
Medium: in vitro
Tested at: 365 nM
Setting: natural RNA segment, single round, ends assumed
Baseline: no-protein control
Reading: higher = stronger binding
Shared flanks, not repeated: GGGAGUUCUACAGUCCGACGAUC … UGGAAUUCUCGGGUGCCAA
Residues (chain): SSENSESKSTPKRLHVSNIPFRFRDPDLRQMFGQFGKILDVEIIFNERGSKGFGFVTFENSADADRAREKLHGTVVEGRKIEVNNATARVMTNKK
Strand	RBNS enrichment (R)
AUAAGGCUAAAUAUUACUUUACACAGUAAGAUGUGAAAUUCACAAAAAGUAAACCAAACAAAACGAAUGAAAAACUGGAAAUAAUUCGUUUCCAUAUCUUUCCAUACAUC	0.669
AUUGAACAAAGACUACUAAUGACUUUGUUUGAAUUAUCCACAUGAAAAUAAAGAGCCAUAGUUUCAGCCUUGCUGUCUUCGUGUCUUACCCCUUCGUGGGGCUACACAUU	0.28
UUGGUAGCAAUAUCUUUGAAUAUGAUGAAUAAAAGUGACUGUGAGUGCAAAUAGAAUUAGCAGUAAGAAGCUACUCUAGCUAAUUUGCCAUUUUACUUAAAUGGAAAAUG	0.367
CUCUGGAGCUGGAUAGACUGAUGGCCUCACUCUCUGACUUCCGCGUUCAAAACCAUGUUCCAGCCUCUGGGCCAACUCAGCCACCGGUGGUGAGCUCCACAAAUGAGGGC	0.348
CACCUCCUGGCUGGUUUACCUGCUGCUGCCCAUUUUCUCUGGGUACUGCUGGCCAGAGGACUUUAGCCUACCCCUGAAGAGCCUGUCCAUGUCAUUUUCCUACUGCCAUA	0.559
UUGCAUGCUUUAUUCUACCUCUAAGCCAUCGUGUUGACGUGGGUAUGGACGCCUGGGUCUGACCUGACACUGUGCUGGGAGAAUCAGGAUGUGUGUCUAAUGGCGAGCUG	0.704
CCUUUCUGAGGCUUGGCUUUAGAAAUAACCUUUUGGAACAAACUAUAAAUAUUUCCUAGCAAGGAUCAUAAGCCCAAUUUCCGGAUUUGCCCCUCUGAGAAGCAUGAAUG	2.64
UCACUACAGCAACCACAUACAGUACAGACAACCUCCAAACCUGUUUAUAUUAGUGUAAAUAGAAAAUCUAUAGACAACUUUCUAGUUUUCUCUGGAGGCAUUUUUGGGAA	0.882
AGAGCCCCUGGCACAACUCUAGCAUAUCUGUGAGCAGCUGUUCCCUGUAGCCACUGCCCAGCACCUCCUCAGGCCAGCCUGGUGCCACAGUCACGUGGGGGAAGACCUCA	0.347
AAGCAAGCGUUGGUCAGUGUUGUGUCCCAGUAGCUGGGAAGGGCACGGCUUUGCCCUGAUCUGUUCUGCAGGGCUAGGAGUGAGCCUGCCACUAACCCCUCUCCACCACU	0.288
AAGGCUCUUGUUGCUGUAAUUUAGAGAGGAGCUCUGUGUCCUUGGCCAGUCAAGUAAGUUCCUGGAUCUUUGGCAAAGCCAGAGGAAGAAAGGAGCUACCUGCCCUUUCC	0.314
ACUGUCUCCAGACAGCAGGGCCCUUUGUCUCUGAGAAAUUAGCCAUCCAGAAUAGAAUCUGUAACAAGAGACAUGGGACAUAAGCCAGAGAACUCAAACAGCCCUUUAAA	0.328

Block 3
Target: CCNB1, cyclin fold, Cln2 fusion (human)
Method: yeast growth competition, sequencing
Medium: yeast
Setting: weak parent motif
Baseline: not given
Reading: higher = stronger binding
Starting sequence: SAMHD1 docking peptide (human); ASKSRVQLFKDDP
Substitution	normalised enrichment score
ASKSRVQLKKDDP [F9K]	0.168
ASESRVQLFKDDP [K3E]	0.149
AAKSRVQLFKDDP [S2A]	0.486
ASKSRWQLFKDDP [V6W]	-0.387
ASKSRVQLFIDDP [K10I]	0.789
ASKSRVQLFKYDP [D11Y]	0.288
ASKSDVQLFKDDP [R5D]	-0.311
ASMSRVQLFKDDP [K3M]	0.167
ASKSRVQLFKDTP [D12T]	-0.0331
ASKSRIQLFKDDP [V6I]	-0.248
ANKSRVQLFKDDP [S2N]	0.0182
ASKSRVQLYKDDP [F9Y]	0.142
ASKSRVQGFKDDP [L8G]	0.206
ASCSRVQLFKDDP [K3C]	0.347
ATKSRVQLFKDDP [S2T]	0.412
ASKSRVQLTKDDP [F9T]	-0.0868
ASKSRFQLFKDDP [V6F]	0.259
ASKSRVQLFKVDP [D11V]	-0.0101
ASKSRVQLFKDKP [D12K]	0.46
ASTSRVQLFKDDP [K3T]	0.0246
ASHSRVQLFKDDP [K3H]	0.335
ASKSHVQLFKDDP [R5H]	0.12
ASQSRVQLFKDDP [K3Q]	-0.0906
ASKSTVQLFKDDP [R5T]	0.155
ASKSRVQLFKDYP [D12Y]	0.307

Mixed results
Substance	target	test	system	setting	scale	measurement	value
PhoQ, residues 284 288 289 292 302 303 AGCYAI	PhoP, residues 12 14 15 18 19 LHATL (Escherichia coli, UniProt P23836)	Sort-seq, item: YFP reporter	E. coli	PhoQ-PhoP variant library, together with: 10 µM Mg2+	baseline: high Mg2+ state, higher = stronger signaling	fold induction	33

Some of these lines once more (block 3):
Substitution	normalised enrichment score
ASKSRVQLFKDTP [D12T]	-0.0331
ASKSRIQLFKDDP [V6I]	-0.248
ANKSRVQLFKDDP [S2N]	0.0182
ASKSRVQLYKDDP [F9Y]	0.142
ASKSRVQGFKDDP [L8G]	0.206
